Results pooled from the literature.
Each line is one published result; not all experiments were run side by side. Values joined by “and” are separate records of one study, mostly repeats; a detail may differ. Numbers after ± are the reported error.

COC1OC(C)C(OS(=O)(=O)O)C(OC2OC(C)C(OS(=O)(=O)O)C(OC3OC(C)C(OS(=O)(=O)O)C(OS(=O)(=O)O)C3OS(=O)(=O)O)C2OS(=O)(=O)O)C1OS(=O)(=O)O (stereo not drawn) — thrombin time (human plasma; 128 µg/mL): 9.8 ± 0.5 s
CC1=CC(=O)c2ccccc2C1=O — live cells (pancreatic islet cells, mouse; 7 µM, 24 h): 34.4%
COC(=O)C1CN1S(=O)(=O)c1ccc2cc(C)ccc2c1 (stereo not drawn) — tumour volume (mouse, Lewis lung carcinoma; ip, 100 mg/kg, 264 h): 352 mm3
COC1OC(C)C(OC2OC(C)C(O)C(OS(=O)(=O)O)C2OS(=O)(=O)O)C(OS(=O)(=O)O)C1OS(=O)(=O)O (stereo not drawn) — thrombin time prolongation (human plasma; 128 µg/mL; baseline: control): 0.9 fold
COc1ccc(C(=O)CCc2cc(C(CCc3ccc(O)cc3OC)c3ccc(O)cc3)c(O)cc2OC)cc1 (racemic) — PGE2 level (human blood; 3 µM, together with: A23187): 59 ± 18 pg/mL
O=C(Nc1ccccc1)c1ccc(Nc2nnc(-c3ccc(O)cc3)c3ccccc23)cc1 — nociceptive behaviour (formalin-induced pain; mouse; intracerebroventricular, 0.01 3 µg per animal): decreased
COc1cc2c(NC3CCN(C(C)C)CC3)cc(N3CCOCC3)nc2cc1OCCCN1CCCC1 — normalised protein abundance (TMT quantitative proteomics, item: ALDOA; FAD AD model mice, hippocampus; dose not given): -0.014 and -0.0463 and -0.0488 and -0.043 and -0.0217 and -0.0326 and -0.0366 and -0.0449
COC1OC(C)C(O)C(OC2OC(C)C(O)C(OC3OC(C)C(O)C(OC4OC(C)C(O)C(OC5OC(C)C(O)C(OC6OC(C)C(O)C(OC7OC(C)C(O)C(OC8OC(C)C(O)C(OC9OC(C)C(O)C(OC%10OC(C)C(O)C(OC%11OC(C)C(O)C(OS(=O)(=O)O)C%11OS(=O)(=O)O)C%10OS(=O)(=O)O)C9OS(=O)(=O)O)C8OS(=O)(=O)O)C7OS(=O)(=O)O)C6OS(=O)(=O)O)C5OS(=O)(=O)O)C4OS(=O)(=O)O)C3OS(=O)(=O)O)C2OS(=O)(=O)O)C1OS(=O)(=O)O (stereo not drawn) — thrombin time prolongation (human plasma; 128 µg/mL; baseline: control): 0.9 fold
CC(=O)[O-].O.O.[O-]c1ccc(Br)cc1C=NCCN1CCOCC1.[Zn+2] — inhibition (superoxide scavenging; 120 µM): 22.3%
COc1cc(O)ccc1CCC(c1ccc(O)cc1)c1cc2c(c(C)c1O)OC(c1ccc(O)cc1)CC2 (mixture of isomers) — 5-HETE level (human blood; 0.3 µM, together with: A23187): 3880 ± 1760 pg/mL
Cc1ccc(N(O)/N=N/c2ccc(S(=O)(=O)Nc3nccs3)cc2)cc1 — inhibition (DPPH scavenging, absorbance; 240 µg/mL): 32.1%
NC[C@@H](C(=O)Nc1ccc(-c2cn[nH]c2)cc1)c1ccccc1 — IOP (tonometry; Macaca cyclopis, ocular normotensive; ocular, 0.1%, 24 h): 18.3 mmHg
COC1OC(C)C(O)C(OC2OC(C)C(O)C(OC3OC(C)C(O)C(OC4OC(C)C(O)C(OS(=O)(=O)O)C4OS(=O)(=O)O)C3OS(=O)(=O)O)C2OS(=O)(=O)O)C1OS(=O)(=O)O (stereo not drawn) — thrombin time (human plasma; 128 µg/mL): 10.6 ± 1 s
COC1CN([C@H]2CC[C@H]([C@@]3(C)Oc4c(Cl)cc(C(=O)NCc5c(SC)cc(C)[nH]c5=O)c(C)c4O3)CC2)C1 — log2 fold change (RNA-seq, item: SLC6A9 mouse homolog; mouse, HT-1376 xenograft, whole blood; dose not given; baseline: vehicle): 1.55
COC1OC(C)C(OS(=O)(=O)O)C(OC2OC(C)C(OS(=O)(=O)O)C(OC3OC(C)C(OS(=O)(=O)O)C(OC4OC(C)C(OS(=O)(=O)O)C(OS(=O)(=O)O)C4OS(=O)(=O)O)C3OS(=O)(=O)O)C2OS(=O)(=O)O)C1OS(=O)(=O)O (stereo not drawn) — thrombin time (human plasma; 128 µg/mL): 9.2 s
COc1cc(N2CCN(C(=O)C3CCCN3)CC2)ccc1Nc1ncc(Cl)c(Nc2ccccc2P(C)(C)=O)n1 (stereo not drawn) — tumour volume (nude mice, NCI-H3122 xenograft; oral, 25 mg/kg every two days, day 3): 107 mm3 and 20.4 mm3 and 58.2 mm3 and 61.9 mm3 and 111 mm3
CN1CCC[C@]1(C)/C=C/S(=O)(=O)NC(=O)Nc1c2c(cc3c1CCC3)CCC2 — IL-18 inhibition (human, whole blood ex vivo; 50 mg single dose, 24 h, single ascending dose, together with: LPS and ATP): 113%
COC1OC(C)C(O)C(OC2OC(C)C(O)C(OC3OC(C)C(O)C(OS(=O)(=O)O)C3OS(=O)(=O)O)C2OS(=O)(=O)O)C1OS(=O)(=O)O (stereo not drawn) — thrombin time (human plasma; 128 µg/mL): 9.9 ± 0.6 s

A few entries again:
COc1cc(N2CCN(C(=O)C3CCCN3)CC2)ccc1Nc1ncc(Cl)c(Nc2ccccc2P(C)(C)=O)n1 (stereo not drawn) — tumour volume (nude mice, NCI-H3122 xenograft; oral, 25 mg/kg every two days, day 3): 107 mm3 and 20.4 mm3 and 58.2 mm3 and 61.9 mm3 and 111 mm3
